Measurements gathered from unrelated publications.
Converted amounts (≈) assume the structure as drawn.
Organism: Staphylococcus epidermidis

SMILES	assay	test system	setting	quantity	result
CC[C@H](C)[C@H](N)C(=O)N[C@@H](CCCNC(=N)N)C(=O)N[C@H](C(=O)N[C@@H](Cc1c[nH]c2ccccc12)C(=O)N[C@@H](Cc1c[nH]c2ccccc12)C(=O)N[C@@H](CCCCN)C(=O)N[C@H](C(=O)N[C@H](C(=O)N[C@@H](CCCNC(=N)N)C(=O)N[C@@H](CCCCN)C(=O)N[C@@H](Cc1c[nH]c2ccccc12)C(=O)N[C@@H](CCCCN)C(=O)N[C@@H](C)C(=O)N[C@H](C(=O)N[C@@H](Cc1c[nH]c2ccccc12)C(=O)N[C@@H](Cc1c[nH]cn1)C(N)=O)[C@@H](C)CC)C(C)C)[C@@H](C)CC)C(C)C	broth dilution	KCTC 1917	–	MIC	12.5 µM
CC(C)C[C@H](NC(=O)[C@H](Cc1c[nH]c2ccccc12)NC(=O)[C@H](CC(C)C)NC(=O)[C@@H](NC(=O)[C@H](CC(C)C)NC(=O)[C@H](CCCNC(=N)N)NC(=O)[C@@H](N)CCCNC(=N)N)[C@@H](C)O)C(=O)N[C@H](C(=O)N[C@@H](CC(C)C)C(=O)N[C@@H](CCCNC(=N)N)C(=O)N[C@@H](CCCNC(=N)N)C(N)=O)[C@@H](C)O	broth microdilution	12228, Mueller-Hinton broth	24 h, 37 °C, lowest concentration, 95% inhibition, with: BSA	MIC	4 µM
CC[C@H](C)[C@H](NC(=O)[C@H](CCCNC(=N)N)NC(=O)[C@H](Cc1ccc(O)cc1)NC(=O)CNC(=O)[C@H](Cc1ccc(O)cc1)NC(=O)[C@H](CCCNC(=N)N)NC(=O)[C@H](CC(C)C)NC(=O)[C@H](C)NC(=O)[C@H](CCC(N)=O)NC(=O)[C@H](CCC(=O)O)NC(=O)[C@@H](NC(=O)[C@H](CCC(N)=O)NC(=O)[C@H](CCCNC(=N)N)NC(=O)[C@H](CCSC)NC(=O)[C@H](Cc1ccc(O)cc1)NC(=O)[C@H](CCC(N)=O)NC(=O)[C@@H](N)CCCNC(=N)N)[C@@H](C)CC)C(=O)N[C@@H](CO)C(=O)N[C@@H](CCCNC(=N)N)C(=O)N[C@@H](CCCNC(=N)N)C(N)=O	broth dilution	ATCC 51625	18 h, 37 °C	MIC	242 µM
CN[C@H](CC(C)C)C(=O)N[C@H]1C(=O)N[C@@H](CC(N)=O)C(=O)N[C@H]2C(=O)N[C@H]3C(=O)N[C@H](C(=O)N[C@H](C(=O)O)c4cc(O)cc(O)c4-c4cc3ccc4O)[C@H](O)c3ccc(c(Cl)c3)Oc3cc2cc(c3O[C@@H]2O[C@H](CO)[C@@H](O)[C@H](O)[C@H]2O[C@H]2C[C@](C)(N)[C@H](O)[C@H](C)O2)Oc2ccc(cc2Cl)[C@H]1O	–	MRSE 35984	–	MIC	1.17 µM
CC[C@H](C)[C@H](N)C(=O)N[C@@H](CCCNC(=N)N)C(=O)N[C@H](C(=O)N[C@@H](Cc1c[nH]c2ccccc12)C(=O)N[C@@H](Cc1ccccc1)C(=O)N[C@H](C(=O)N[C@@H](CCCCN)C(=O)N[C@H](C(=O)N[C@@H](CCCNC(=N)N)C(=O)N[C@@H](CCCCN)C(=O)N[C@@H](Cc1c[nH]c2ccccc12)C(=O)N[C@@H](CCCCN)C(=O)N[C@@H](C)C(=O)N[C@H](C(=O)N[C@@H](Cc1ccc(O)cc1)C(=O)N[C@@H](Cc1c[nH]cn1)C(=O)N[C@H](C(N)=O)[C@@H](C)O)[C@@H](C)CC)C(C)C)[C@@H](C)CC)C(C)C	broth dilution	KCTC 1917	–	MIC	50 µM
CN[C@H](CC(C)C)C(=O)N[C@H]1C(=O)N[C@@H](CC(N)=O)C(=O)N[C@H]2C(=O)N[C@H]3C(=O)N[C@H](C(=O)N[C@H](C(=O)O)c4cc(O)cc(O)c4-c4cc3ccc4O)[C@H](O)c3ccc(c(Cl)c3)Oc3cc2cc(c3O[C@@H]2O[C@H](CO)[C@@H](O)[C@H](O)[C@H]2O[C@H]2C[C@](C)(N)[C@H](O)[C@H](C)O2)Oc2ccc(cc2Cl)[C@H]1O	–	MRSE 35984	24 h	MBC	3 µM (≈ 4.35 µg/mL)
CC[C@@H](C)[C@@H](N)C(=O)N[C@@H](C(=O)N[C@H](Cc1ccc(O)cc1)C(=O)N[C@@H](C(=O)N[C@H](CCN)C(=O)N[C@H](CC(C)C)C(=O)N[C@H](CO)C(=O)N[C@H](CCN)C(=O)N[C@@H](C(=O)N[C@H](CCN)C(=O)N[C@H](Cc1c[nH]cn1)C(=O)N[C@H](CCN)C(=O)N[C@H](C)C(=O)N[C@H](CCN)C(=O)N[C@H](CCN)C(N)=O)[C@H](C)CC)[C@H](C)CC)[C@H](C)CC	–	ATCC 12228, Mueller-Hinton broth	–	MIC	2 µg/mL
C[C@@H](O)[C@H](NC(=O)[C@H](Cc1ccccc1)NC(=O)[C@H](Cc1c[nH]c2ccccc12)NC(=O)[C@H](Cc1ccccc1)NC(=O)[C@@H](NC(=O)[C@H](Cc1ccccc1)NC(=O)[C@H](CCCNC(=N)N)NC(=O)[C@@H](N)CCCNC(=N)N)[C@@H](C)O)C(=O)N[C@@H](Cc1ccccc1)C(=O)N[C@@H](CCCNC(=N)N)C(=O)N[C@@H](CCCNC(=N)N)C(N)=O	broth microdilution	12228, Mueller-Hinton broth	24 h, 37 °C, lowest concentration, 95% inhibition, with: BSA	MIC	32 µM
CC[C@H](C)[C@H](NC(=O)[C@H](C)NC(=O)CNC(=O)[C@H](C)NC(=O)[C@H](CCCCN)NC(=O)[C@H](CO)NC(=O)[C@H](C)NC(=O)[C@H](CCSC)NC(=O)CN)C(=O)N[C@@H](C)C(=O)NCC(=O)N[C@@H](CCCCN)C(=O)N[C@H](C(=O)N[C@@H](C)C(=O)N[C@@H](CCCCN)C(=O)N[C@H](C(=O)N[C@@H](C)C(=O)N[C@@H](CC(C)C)C(=O)N[C@@H](CCCCN)C(=O)N[C@@H](C)C(=O)N[C@@H](CC(C)C)C(N)=O)C(C)C)[C@@H](C)CC	broth dilution	ATCC 51625	18 h, 37 °C	MIC	20.3 µM

Repeated from above:
SMILES	assay	test system	setting	quantity	result
CC[C@H](C)[C@H](NC(=O)[C@H](CCCNC(=N)N)NC(=O)[C@H](Cc1ccc(O)cc1)NC(=O)CNC(=O)[C@H](Cc1ccc(O)cc1)NC(=O)[C@H](CCCNC(=N)N)NC(=O)[C@H](CC(C)C)NC(=O)[C@H](C)NC(=O)[C@H](CCC(N)=O)NC(=O)[C@H](CCC(=O)O)NC(=O)[C@@H](NC(=O)[C@H](CCC(N)=O)NC(=O)[C@H](CCCNC(=N)N)NC(=O)[C@H](CCSC)NC(=O)[C@H](Cc1ccc(O)cc1)NC(=O)[C@H](CCC(N)=O)NC(=O)[C@@H](N)CCCNC(=N)N)[C@@H](C)CC)C(=O)N[C@@H](CO)C(=O)N[C@@H](CCCNC(=N)N)C(=O)N[C@@H](CCCNC(=N)N)C(N)=O	broth dilution	ATCC 51625	18 h, 37 °C	MIC	242 µM
